Measured values gathered from unrelated publications.
Each numbered part is a random draw from the data of one study; scales do not carry over between parts.

Series 1
Target: Replicase polyprotein 1ab, polymerase (rep, Severe acute respiratory syndrome coronavirus 2, UniProt P0DTD1)
Read-out: enzyme activity
Action: inhibitor
Concentration: 20 µM
Quantity: inhibition
FC(F)(F)C(F)(F)C(F)(F)N(C(F)(F)C(F)(F)C(F)(F)F)C(F)(F)C(F)(F)C(F)(F)F: 3.13%
N#Cc1ccc(N2CCN(C(=O)COc3ccc4[nH]cc(CCN)c4c3)CC2)cc1: -2.29%
Cc1ccccc1N=Nc1ccc(NC(=O)c2ccnn2C)c(C)c1: 0.1%
CC(C)OC(=O)c1cc2c(OCC(O)CNC(C)(C)C)cccc2[nH]1 (stereo not drawn): -6.17%
CN1C/C=C/CCOc2cccc(c2)-c2ccnc(n2)Nc2cccc(c2)C1: 1.21%
N[C@H](C(=O)O)c1cc(O)no1: -3.75%
CCCC(=O)OCOC(=O)C1=C(C)NC(C)=C(C(=O)OC)C1c1cccc(Cl)c1Cl (stereo not drawn): 0.77%
Cn1cnc2c(NCc3ccccc3)nc(NCCO)nc21: -4.95%
CN1CCN(CCOc2cc(OC3CCOCC3)c3c(Nc4c(Cl)ccc5c4OCO5)ncnc3c2)CC1: 0.5%
CC(C)(N)Cc1ccccc1: 3%
CN1C(=O)/C(=C2/C(=O)Nc3ccccc32)c2ccccc21: 1.19%
NC(=O)OCC(O)COc1ccc(Cl)cc1 (stereo not drawn): 0.32%
Cn1nnc(-c2ccc(-c3ccc(N4C[C@H](COP(=O)(O)O)OC4=O)cc3F)cn2)n1: 15.5%
COc1ccc(CCN2CCN(CCCc3ccccc3)CC2)cc1OC: -6.95%
C=C1CC[C@@]2(O)[C@H]3Cc4ccc(O)c5c4[C@@]2(CCN3CC2CC2)[C@H]1O5: -5.59%
CC(C)[C@H]1C(=O)N[C@@H](CCCNC(=N)N)C(=O)NCC(=O)N[C@@H](CC(=O)O)C(=O)N[C@H](Cc2ccccc2)C(=O)N1C: -4.61%
O=C1NC(O)CCN1[C@@H]1O[C@H](CO)[C@@H](O)[C@H]1O (stereo partly drawn): 2.16%
Nc1ncnc2c1c(COc1cccc(Cl)c1)nn2C1CCOCC1: 0.1%
CCCN1C[C@H](NS(=O)(=O)N(CC)CC)C[C@H]2Cc3c(O)cccc3C[C@@H]21: -8.43%

Series 2
Target: Interferon regulatory factor 5, full length, phosphomimetic (IRF5, Homo sapiens, UniProt Q13568-2, residues 1-514, S451D/S453D/S456D/S462D)
Technique: protein-binding microarray
Molecule type: double-stranded DNA, one strand shown
Matrix: in vitro
Concentration: 940 nM top
Setting: 60-bp whole probe
With: salmon DNA 0.4 mg/ml
Baseline: random background probes
Reading: higher = stronger binding
Quantity: fitted relative affinity
Shared flanks, not repeated: GCCTAGCAC … GTCTTGATTCGCTTGACGCTGCTG
ACTAGTTTTCATTTTCTGAAGTGCTAG: 1.94 z-score
TCACCACCCGCTCTGGCACTGTGCTAG: -0.0855 z-score
TTAGGTTTCGACACTTGGTTAGTGCTA: 7.16 z-score
GACGATATCAGTTTCGATACGTGCTAG: 7.95 z-score
GACGGTTTCGGGACTGGGGTCGTGCTA: 7.72 z-score
TTAGGTATCGACACTGGGTTAGTGCTA: 4.7 z-score
AACCACATAGGAAGAACAACGTGCTAG: 0.307 z-score
TGTAATGATGTAGGCAAATGGTGCTAG: -0.598 z-score

Series 3
Target: Replicase polyprotein 1ab, 3C-like proteinase (rep, Middle East respiratory syndrome-related coronavirus, UniProt K9N7C7)
Read-out: enzyme activity
Concentration: 10 µM
Quantity: inhibition
O=C1c2c(O)cc(O)cc2O[C@H](c2cc(O)c(O)c(O)c2)[C@H]1O: 18%
CC(CN1CC(=O)NC(=O)C1)N1CC(=O)NC(=O)C1 (stereo not drawn): 7%
O=C1C=Cc2cc(Br)ccc2C1=O: 9%
O=C(O)c1cc(O)c2c(c1)[C@H]([C@H]1c3cc(C(=O)O)cc(O)c3C(=O)c3c(O[C@@H]4O[C@H](CO)[C@@H](O)[C@H](O)[C@H]4O)cccc31)c1cccc(O[C@@H]3O[C@H](CO)[C@@H](O)[C@H](O)[C@H]3O)c1C2=O: 42%

Series 4
Target: Histone acetyltransferase KAT6A, winged helix 1, GST fusion (KAT6A, Homo sapiens, UniProt Q92794, residues 1-85)
Technique: protein binding microarray
Molecule type: double-stranded DNA, one strand shown
Matrix: in vitro
Concentration: not given
Setting: 8-mer, flanks averaged, mean of 2 arrays, mostly near background
Baseline: not given
Reading: higher = stronger binding
Quantity: E-score
Construct (chain): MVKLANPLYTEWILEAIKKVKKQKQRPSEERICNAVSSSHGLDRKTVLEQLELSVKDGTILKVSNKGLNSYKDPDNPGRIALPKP
AGACGAGC: -0.023
GGTGGCTA: 0.0342
ACGGAATG: 0.0577
TACTGTAA: -0.0415
ACTCCGCT: 0.13
CTCACCGC: 0.121
AACTATCG: -0.0237
ATGTTTCA: 0.00182

Repeated from above (series 4):
ACTCCGCT: 0.13
CTCACCGC: 0.121
TACTGTAA: -0.0415
GGTGGCTA: 0.0342
ACGGAATG: 0.0577
